Assay results pooled from the literature.
Each numbered part is a random draw from the data of one study; scales do not carry over between parts. Positions count from the first letter of the parent shown.

Sample 1 — technique: protein-binding microarray; form: double-stranded DNA, one strand shown; medium: in vitro; concentration: not given; reading: higher = stronger binding
Target: Max dimerization protein 1, bHLH-zipper, MAX partner unstated (MXD1, Homo sapiens, UniProt Q05195, residues 56-136)
Setting: k-mer, scored over probes, only values ≥0.25
Target sequence (chain): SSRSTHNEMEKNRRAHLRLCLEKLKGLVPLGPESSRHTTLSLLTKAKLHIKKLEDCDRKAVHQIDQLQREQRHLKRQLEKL
| Strand | E-score |
| --- | --- |
| ATCATGCG | 0.302 |
| CACGTTGC | 0.426 |
| ACGTGCGA | 0.321 |
| AACACATG | 0.447 |
| CCCACACG | 0.311 |
| CATGGTCA | 0.324 |
| ACGTGTCG | 0.388 |
| GCGGGGAA | 0.301 |

Sample 2 — technique: protein-binding microarray; form: double-stranded DNA, one strand shown; medium: in vitro; concentration: 0.8 µM; setting: whole 60-bp probe, no competitor; reading: higher = stronger binding; constant ends, left off below: … GTCTTGATTCGCTTGACGCTGCTG
Target: Centromere-binding protein 1, full length, N-terminal tag (CBF1, Saccharomyces cerevisiae, UniProt P17106, residues 1-351)
UniProt P17106, sequence (whole entry, looked up): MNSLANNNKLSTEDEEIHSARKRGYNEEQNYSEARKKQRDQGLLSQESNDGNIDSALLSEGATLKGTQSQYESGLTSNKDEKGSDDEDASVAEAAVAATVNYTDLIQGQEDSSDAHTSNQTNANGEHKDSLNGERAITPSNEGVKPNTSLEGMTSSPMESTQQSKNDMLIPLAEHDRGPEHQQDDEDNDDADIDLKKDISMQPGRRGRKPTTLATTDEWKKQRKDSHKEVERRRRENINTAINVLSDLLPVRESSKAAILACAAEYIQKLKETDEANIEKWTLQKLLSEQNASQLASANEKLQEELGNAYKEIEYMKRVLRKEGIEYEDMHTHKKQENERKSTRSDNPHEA
| Strand | fluorescence intensity |
| --- | --- |
| CTATTATTTTCGTCAGGCGTGATATCAGCGAGTTTC | 750 a.u. |
| GAATTTGATTGGTCTCACGTTGGCTTGTATATTTAG | 567 a.u. |
| TGTACGAAGCTATTTTGTGACACTATAGTAGTTAGG | 538 a.u. |
| GAAAACTCCCACCAGGACGTGGTGGGAAATGCATAG | 486 a.u. |
| GAATAGAAATTTAAACACGTTTATTTAGCTGCTTAG | 575 a.u. |
| CTATATTTCAGCCTTATCGTGGTGGTACATGTATTC | 490 a.u. |
| CCTAACTACTATAGTCACATGCAATAGCTTCGTACA | 2650 a.u. |
| GAAATTTTCTAAGTTGGTCAGCTGTAATCTATCTAG | 627 a.u. |

Sample 3 — technique: DHFR PCA, deep sequencing; medium: yeast; with: (+)-ABA 0.11 µM; reference: wild-type fitted maximum; reading: higher = stronger binding
Target: ABI1, truncated, D143A, DHFR fusion (Arabidopsis thaliana)
Setting: methotrexate growth selection, single substitutions
Parent: PYL1, truncated, DHFR fusion (Arabidopsis thaliana); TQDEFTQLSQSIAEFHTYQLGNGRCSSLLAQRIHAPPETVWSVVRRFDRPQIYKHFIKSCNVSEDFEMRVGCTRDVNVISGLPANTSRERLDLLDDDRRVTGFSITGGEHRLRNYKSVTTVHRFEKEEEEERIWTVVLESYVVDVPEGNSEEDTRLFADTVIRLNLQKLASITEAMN; partner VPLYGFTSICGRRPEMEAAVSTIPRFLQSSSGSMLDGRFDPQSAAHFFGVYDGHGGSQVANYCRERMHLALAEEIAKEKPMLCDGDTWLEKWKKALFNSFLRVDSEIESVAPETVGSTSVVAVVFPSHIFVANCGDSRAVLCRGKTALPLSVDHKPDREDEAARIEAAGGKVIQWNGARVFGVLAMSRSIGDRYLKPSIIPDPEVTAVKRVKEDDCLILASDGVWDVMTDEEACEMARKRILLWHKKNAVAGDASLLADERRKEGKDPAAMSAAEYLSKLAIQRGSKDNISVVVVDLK
| Variant | relative binding score [%] |
| --- | --- |
| D48G | 2.55 |
| A175R | 32.5 |
| Y18D | 0.992 |
| N22E | 47.5 |
| T17K | 10.6 |
| H110D | 38.7 |
| D144I | -18.2 |
| L91T | 7.66 |

Sample 4 — read-out: peptide-MHC binding; form: peptide; concentration: concentration not given
Target: HLA class I histocompatibility antigen, A alpha chain, allele A*80:01 (Homo sapiens, UniProt P04439)
| Molecule | binding |
| --- | --- |
| KVGFIMLFH | active |
| FMKSRVYSI | inactive |
| YKDANISMY | inactive |
| NSESGNSRY | inactive |
| LTIVFVPEV | inactive |
| IFLKPDETF | inactive |
| AARISSCLK | inactive |
| TLKDGDFIL | inactive |
| RIYDPLWFQ | inactive |
| TVYGLGADV | inactive |
| ETESVNSNY | inactive |
| LSDLKKTIY | inactive |
| NYIDKVRFL | inactive |
| RVVRPWGSY | inactive |
| EVRLATMLF | inactive |
| FHEFLSSKL | inactive |
| LPYPVLLKI | inactive |
| MVFGRFSFA | inactive |

Single results of other studies
| Structure (SMILES) | target | assay | conditions | quantity | result |
| --- | --- | --- | --- | --- | --- |
| CN1C(=O)[C@@H](N2CCc3cn(Cc4ccccc4)nc3C2=O)COc2ccccc21 | Sodium-dependent serotonin transporter (SLC6A4, Homo sapiens, UniProt P31645) | binding, radioligand binding | 10 µM | inhibition | 5.99% |

Repeated from above (sample 4):
| Molecule | binding |
| --- | --- |
| NSESGNSRY | inactive |
| LTIVFVPEV | inactive |
| IFLKPDETF | inactive |
| AARISSCLK | inactive |
| TLKDGDFIL | inactive |
| RIYDPLWFQ | inactive |
